{"data": "Experimental data pooled from the literature", "SYK SH2 domains": "Tyrosine-protein kinase SYK, SH2 domains (SYK, Homo sapiens, UniProt P43405)", "ABL2 SH2 domain": "Tyrosine-protein kinase ABL2, SH2 domain (ABL2, Homo sapiens, UniProt P42684)", "note": "± marks the error that the study gave.", "UniProt P42684, sequence (whole entry, looked up)": "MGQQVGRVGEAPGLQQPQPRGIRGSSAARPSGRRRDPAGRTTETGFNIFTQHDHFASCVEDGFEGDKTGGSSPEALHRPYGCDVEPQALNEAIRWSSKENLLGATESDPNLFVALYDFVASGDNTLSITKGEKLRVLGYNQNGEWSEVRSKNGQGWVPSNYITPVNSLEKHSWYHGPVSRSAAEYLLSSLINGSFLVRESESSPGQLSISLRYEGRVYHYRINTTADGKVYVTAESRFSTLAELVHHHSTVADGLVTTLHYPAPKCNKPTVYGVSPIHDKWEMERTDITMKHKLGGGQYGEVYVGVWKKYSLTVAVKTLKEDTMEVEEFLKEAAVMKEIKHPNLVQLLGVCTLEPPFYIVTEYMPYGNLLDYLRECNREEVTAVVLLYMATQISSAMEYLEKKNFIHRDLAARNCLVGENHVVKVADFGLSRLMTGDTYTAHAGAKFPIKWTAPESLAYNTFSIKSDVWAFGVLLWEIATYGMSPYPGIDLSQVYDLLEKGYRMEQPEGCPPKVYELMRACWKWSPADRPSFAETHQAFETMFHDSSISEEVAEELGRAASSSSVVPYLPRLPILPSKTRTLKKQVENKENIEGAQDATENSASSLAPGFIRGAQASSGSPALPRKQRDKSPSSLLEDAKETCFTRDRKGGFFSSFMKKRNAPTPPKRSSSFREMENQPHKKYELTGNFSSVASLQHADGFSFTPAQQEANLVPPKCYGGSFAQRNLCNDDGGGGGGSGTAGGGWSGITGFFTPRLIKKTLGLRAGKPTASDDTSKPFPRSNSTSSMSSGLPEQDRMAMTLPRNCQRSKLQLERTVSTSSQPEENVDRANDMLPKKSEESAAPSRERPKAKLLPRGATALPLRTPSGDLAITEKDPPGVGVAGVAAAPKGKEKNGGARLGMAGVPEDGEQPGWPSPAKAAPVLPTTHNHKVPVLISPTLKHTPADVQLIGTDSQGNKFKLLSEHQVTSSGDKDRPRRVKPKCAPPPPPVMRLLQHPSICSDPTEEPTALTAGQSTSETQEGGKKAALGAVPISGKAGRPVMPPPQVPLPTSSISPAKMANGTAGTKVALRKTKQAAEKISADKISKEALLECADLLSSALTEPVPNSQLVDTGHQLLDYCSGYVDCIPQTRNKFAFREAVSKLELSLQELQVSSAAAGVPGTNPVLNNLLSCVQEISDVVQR", "UniProt Q08881, sequence (whole entry, looked up)": "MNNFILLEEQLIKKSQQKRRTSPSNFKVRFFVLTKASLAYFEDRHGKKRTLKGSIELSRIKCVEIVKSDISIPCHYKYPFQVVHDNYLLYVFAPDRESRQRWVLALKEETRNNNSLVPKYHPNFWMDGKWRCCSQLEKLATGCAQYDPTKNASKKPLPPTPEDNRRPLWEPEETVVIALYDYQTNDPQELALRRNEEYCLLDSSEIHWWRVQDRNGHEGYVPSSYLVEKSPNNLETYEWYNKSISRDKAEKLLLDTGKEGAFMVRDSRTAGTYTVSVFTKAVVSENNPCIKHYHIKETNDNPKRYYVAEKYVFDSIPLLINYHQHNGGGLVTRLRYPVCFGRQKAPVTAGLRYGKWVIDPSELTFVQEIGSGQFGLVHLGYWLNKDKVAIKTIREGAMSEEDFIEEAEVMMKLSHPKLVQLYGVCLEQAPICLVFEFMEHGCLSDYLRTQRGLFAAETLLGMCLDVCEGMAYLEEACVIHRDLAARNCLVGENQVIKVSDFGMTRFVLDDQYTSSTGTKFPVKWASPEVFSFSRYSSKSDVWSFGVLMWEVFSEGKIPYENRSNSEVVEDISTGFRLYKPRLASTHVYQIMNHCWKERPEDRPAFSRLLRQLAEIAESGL", "UniProt Q16620, sequence (whole entry, looked up)": "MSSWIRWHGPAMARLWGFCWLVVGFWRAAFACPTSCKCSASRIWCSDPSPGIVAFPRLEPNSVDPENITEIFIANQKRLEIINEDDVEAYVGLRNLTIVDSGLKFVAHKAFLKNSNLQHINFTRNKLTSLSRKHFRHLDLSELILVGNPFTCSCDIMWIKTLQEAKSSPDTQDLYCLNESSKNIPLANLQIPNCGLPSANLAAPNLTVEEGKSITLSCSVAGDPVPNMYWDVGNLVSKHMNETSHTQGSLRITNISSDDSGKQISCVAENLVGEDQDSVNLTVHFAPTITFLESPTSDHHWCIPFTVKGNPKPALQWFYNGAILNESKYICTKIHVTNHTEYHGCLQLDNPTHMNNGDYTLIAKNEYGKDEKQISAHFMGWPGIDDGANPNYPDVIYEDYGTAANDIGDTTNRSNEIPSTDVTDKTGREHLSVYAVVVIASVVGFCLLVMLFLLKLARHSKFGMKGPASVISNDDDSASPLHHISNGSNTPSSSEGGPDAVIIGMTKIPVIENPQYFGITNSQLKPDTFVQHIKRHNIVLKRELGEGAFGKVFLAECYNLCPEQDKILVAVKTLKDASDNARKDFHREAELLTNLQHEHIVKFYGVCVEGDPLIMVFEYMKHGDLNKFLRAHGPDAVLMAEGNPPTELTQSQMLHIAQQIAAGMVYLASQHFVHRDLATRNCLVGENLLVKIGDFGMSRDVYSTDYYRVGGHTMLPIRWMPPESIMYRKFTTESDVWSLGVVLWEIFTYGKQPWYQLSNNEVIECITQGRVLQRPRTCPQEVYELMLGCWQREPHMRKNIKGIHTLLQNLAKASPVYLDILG", "UniProt Q9Y2K6, sequence (whole entry, looked up)": "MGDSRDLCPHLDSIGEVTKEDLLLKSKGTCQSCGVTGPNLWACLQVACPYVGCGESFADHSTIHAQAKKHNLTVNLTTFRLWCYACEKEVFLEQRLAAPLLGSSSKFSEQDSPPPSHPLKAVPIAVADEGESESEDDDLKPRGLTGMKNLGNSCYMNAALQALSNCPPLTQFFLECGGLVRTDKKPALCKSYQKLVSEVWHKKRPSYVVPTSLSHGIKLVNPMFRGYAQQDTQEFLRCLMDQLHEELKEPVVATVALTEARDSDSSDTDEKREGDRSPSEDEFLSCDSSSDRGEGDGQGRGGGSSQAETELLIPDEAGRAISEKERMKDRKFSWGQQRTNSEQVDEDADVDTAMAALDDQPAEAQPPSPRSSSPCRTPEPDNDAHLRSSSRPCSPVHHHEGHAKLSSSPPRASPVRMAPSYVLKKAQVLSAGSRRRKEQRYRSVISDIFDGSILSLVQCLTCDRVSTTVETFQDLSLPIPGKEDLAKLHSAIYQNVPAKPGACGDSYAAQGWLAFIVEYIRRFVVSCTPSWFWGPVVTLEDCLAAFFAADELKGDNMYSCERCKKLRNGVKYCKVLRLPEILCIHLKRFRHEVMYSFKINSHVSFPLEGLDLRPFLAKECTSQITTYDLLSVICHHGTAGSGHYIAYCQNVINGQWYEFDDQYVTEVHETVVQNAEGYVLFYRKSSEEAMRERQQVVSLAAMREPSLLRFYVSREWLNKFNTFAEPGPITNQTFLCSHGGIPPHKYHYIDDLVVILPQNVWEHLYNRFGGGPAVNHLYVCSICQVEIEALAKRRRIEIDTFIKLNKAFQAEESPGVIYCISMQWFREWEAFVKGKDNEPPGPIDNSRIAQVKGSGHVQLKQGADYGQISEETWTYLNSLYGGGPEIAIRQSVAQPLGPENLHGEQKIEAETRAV", "UniProt P51449, sequence (whole entry, looked up)": "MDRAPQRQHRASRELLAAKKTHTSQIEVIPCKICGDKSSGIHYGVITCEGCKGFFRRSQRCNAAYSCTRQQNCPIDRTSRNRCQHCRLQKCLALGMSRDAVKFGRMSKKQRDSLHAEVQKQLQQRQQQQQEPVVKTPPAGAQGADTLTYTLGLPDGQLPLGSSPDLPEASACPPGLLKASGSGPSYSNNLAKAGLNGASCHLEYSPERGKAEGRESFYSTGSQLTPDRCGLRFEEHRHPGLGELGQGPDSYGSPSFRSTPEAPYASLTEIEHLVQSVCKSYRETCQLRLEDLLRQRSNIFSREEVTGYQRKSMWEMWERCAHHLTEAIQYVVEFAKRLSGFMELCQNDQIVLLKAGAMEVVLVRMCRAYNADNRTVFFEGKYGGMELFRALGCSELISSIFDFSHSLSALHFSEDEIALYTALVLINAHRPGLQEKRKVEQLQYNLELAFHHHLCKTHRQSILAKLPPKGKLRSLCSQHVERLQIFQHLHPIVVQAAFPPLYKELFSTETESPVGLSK", "UniProt Q9UNU6, sequence (whole entry, looked up)": "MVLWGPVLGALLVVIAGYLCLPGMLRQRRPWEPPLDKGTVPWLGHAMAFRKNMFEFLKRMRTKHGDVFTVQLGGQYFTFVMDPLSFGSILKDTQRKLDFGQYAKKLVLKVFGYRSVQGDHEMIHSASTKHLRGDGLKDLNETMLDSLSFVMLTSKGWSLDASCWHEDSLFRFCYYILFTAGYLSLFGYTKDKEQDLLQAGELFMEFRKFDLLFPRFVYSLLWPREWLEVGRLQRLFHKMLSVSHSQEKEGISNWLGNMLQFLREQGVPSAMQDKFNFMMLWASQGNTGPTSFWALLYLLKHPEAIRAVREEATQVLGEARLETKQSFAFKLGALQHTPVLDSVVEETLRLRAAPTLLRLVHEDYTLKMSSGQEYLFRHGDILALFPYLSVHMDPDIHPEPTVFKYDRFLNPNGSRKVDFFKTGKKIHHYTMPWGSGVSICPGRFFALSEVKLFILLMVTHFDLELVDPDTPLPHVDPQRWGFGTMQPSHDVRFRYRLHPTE"}
{"Compound": "CC[C@H](C)[C@H](NC(=O)c1ccc2c(c1)C(=O)OC21c2ccc(N(C)C)cc2Oc2cc(N(C)C)ccc21)C(=O)N[C@@H](CCC(=O)O)C(=O)N[C@@H](CO)C(=O)N[C@@H](CO)C(=O)N[C@@H](CC(N)=O)C(=O)N[C@@H](Cc1ccc(O)cc1)C(=O)N[C@@H](CCSC)C(=O)N[C@@H](C)C(=O)N1CCC[C@H]1C(=O)N[C@@H](Cc1ccc(OP(=O)(O)O)cc1)C(=O)N[C@@H](CC(=O)O)C(=O)N[C@@H](CC(N)=O)C(=O)N[C@@H](Cc1ccc(O)cc1)C(=O)N[C@H](C(=O)N1CCC[C@H]1C(=O)N[C@@H](CO)C(=O)N[C@@H](C)C(=O)N[C@@H](CC(=O)O)C(=O)O)C(C)C", "target": "Tyrosine-protein kinase ITK/TSK, SH2 domain (ITK, Homo sapiens, UniProt Q08881)", "assay": "binding", "Kd [µM]": 1.2}
{"Compound": "CC(=O)N[C@H]1[C@@H](O[C@H](C)[C@H](NC(C)=O)C(=O)N[C@H](C(=O)N[C@H](C(=O)NCC(=O)O)[C@@H](C)O[C@H]2O[C@H](CO)[C@H](O)[C@H](O)[C@H]2NC(C)=O)[C@@H](C)O[C@H]2O[C@H](CO)[C@H](O)[C@H](O)[C@H]2NC(C)=O)O[C@H](CO)[C@H](O)[C@@H]1O", "target": "Vicia villosa lectin", "assay": "glycan microarray", "setting": "5 glycans per BSA", "Kd [µM]": "0.0013 ± 0.0002"}
{"Compound": "O=c1cc(-c2ccc(O)cc2)oc2cc(O)cc(O)c12", "target": "BDNF/NT-3 growth factors receptor (NTRK2, Homo sapiens, UniProt Q16620)", "assay": "binding, tryptophan fluorescence quenching", "setting": "extracellular domain", "Kd [µM]": "0.0098 ± 0.0063"}
{"Compound": "CC[C@@H](C)[C@@H](NC(=O)[C@@H](Cc1ccc(O)cc1)NC(=O)[C@H]1CCCN1C(=O)[C@@H](CCCNC(=N)N)NC(=O)[C@H](N)Cc1c[nH]cn1)C(=O)N[C@H](C)C(=O)N[C@H](Cc1c[nH]cn1)C(=O)N[C@H](CCCNC(=N)N)C(=O)N[C@H](CCCCNC(=O)c1cccc(S(=O)(=O)F)c1)C(=O)N[C@H](Cc1ccc(O)cc1)C(=O)N[C@H](CO)C(=O)N[C@H](Cc1ccccc1)C(N)=O", "target": "Transferrin receptor protein 1 (TFRC, Homo sapiens, UniProt P02786)", "assay": "microscale thermophoresis", "setting": "6 h, OFP-tagged protein", "Kd [µM]": "15.7 ± 0.6"}
{"Compound": "CC(=O)N[C@H]1[C@@H](OC[C@H](NC(=O)[C@H](CO)NC(C)=O)C(=O)N[C@@H](CO)C(=O)NCC(=O)O)O[C@H](CO)[C@H](O)[C@@H]1O", "target": "Helix pomatia agglutinin", "assay": "glycan microarray", "setting": "4 glycans per BSA", "Kd [µM]": "0.0019 ± 0.0005"}
{"Compound": "O=C(O)CCCN1CC=C(c2ccccc2)CC1", "target": "Ubiquitin carboxyl-terminal hydrolase 20, ZnF-UBD domain (USP20, Homo sapiens, UniProt Q9Y2K6)", "Kd [µM]": 380}
{"Compound": "CCCCCCCCCCCC(=O)N[C@H]1CCOC1=O", "target": "qscR, ligand-binding domain (Pseudomonas aeruginosa, UniProt G3XD77)", "assay": "ligand binding, FRET displacement", "setting": "ligand-binding domain", "Kd [µM]": 0.000306}
{"Compound": "CC[C@H](C)[C@H](NC(=O)[C@H](CC(=O)O)NC(=O)[C@H](C)NC(=O)[C@H](Cc1ccc(O)cc1)NC(=O)[C@H](CCCCN)NC(=O)c1ccc2c(c1)C(=O)OC21c2ccc(N(C)C)cc2Oc2cc(N(C)C)ccc21)C(=O)N[C@@H](CCC(=O)O)C(=O)N[C@@H](CO)C(=O)N[C@@H](CO)C(=O)N[C@@H](CC(N)=O)C(=O)N[C@@H](Cc1ccc(OP(=O)(O)O)cc1)C(=O)N[C@@H](CCSC)C(=O)N[C@@H](C)C(=O)N1CCC[C@H]1C(=O)N[C@@H](Cc1ccc(O)cc1)C(=O)N[C@@H](CC(=O)O)C(=O)N[C@@H](CC(N)=O)C(=O)N[C@@H](Cc1ccc(O)cc1)C(=O)N[C@@H](CC(=O)O)C(=O)O", "target": "SYK SH2 domains", "assay": "binding", "Kd [µM]": 1.81}
{"Compound": "CC(C)(C)C(=O)C(Oc1ccc(Cl)cc1)n1ccnc1 (stereo not drawn)", "target": "7-alpha-hydroxycholest-4-en-3-one 12-alpha-hydroxylase (Homo sapiens, UniProt Q9UNU6)", "assay": "binding", "setting": "20 min, pH 7.4", "Kd [µM]": 65.9}
{"Compound": "Nc1ncnc2c1ncn2[C@@H]1O[C@H](COP(=O)(O)O)[C@@H](O)[C@H]1O", "target": "Thermonuclease, denatured (nuc, Staphylococcus aureus, UniProt P00644)", "assay": "binding", "setting": "pH 7", "Kd [µM]": 3300}
{"Compound": "N=C(N)NCCC[C@H](N)C(=O)O", "target": "uncharacterized protein (Pelagibacter ubique, UniProt Q4FLC2)", "assay": "binding, competition isothermal titration calorimetry", "system": "Candidatus Pelagibacter ubique", "setting": "with: octopine competitor", "Kd [µM]": "5.5e-05 ± 3.6e-05"}
{"Compound": "CCCCCCCCCC(=O)CC(=O)N[C@H]1CCOC1=O", "target": "qscR, DNA-bound dimer (Pseudomonas aeruginosa, UniProt G3XD77)", "assay": "ligand binding, FRET displacement", "setting": "protein with DNA", "Kd [µM]": 0.000392}
{"Compound": "CC[C@H](C)[C@H](NC(=O)CNC(=O)[C@H](CC(=O)O)NC(=O)[C@H](Cc1ccc(OP(=O)(O)O)cc1)NC(=O)[C@@H]1CCCN1C(=O)[C@H](CCCCN)NC(=O)[C@H](CO)NC(=O)CNC(=O)[C@H](Cc1ccccc1)NC(=O)[C@@H](NC(=O)[C@H](CCSC)NC(=O)[C@H](CC(C)C)NC(=O)[C@H](CCC(=O)O)NC(=O)c1ccc2c(c1)C(=O)OC21c2ccc(N(C)C)cc2Oc2cc(N(C)C)ccc21)[C@@H](C)O)C(=O)N1CCC[C@H]1C(=O)N[C@@H](C)C(=O)N[C@@H](CO)C(=O)N[C@@H](CCC(=O)O)C(=O)N[C@@H](CC(=O)O)C(=O)O", "target": "ABL2 SH2 domain", "assay": "binding", "Kd [µM]": 0.177}
{"Compound": "COc1cc(O)cc(/C=C/c2ccc(O)cc2)c1", "target": "O-methyltransferase (Sorghum bicolor, UniProt A0A1B6PFV1)", "assay": "binding", "setting": "with: saturating S-adenosylhomocysteine", "Kd [µM]": "0.129 ± 0.0346"}
{"Compound": "CC[C@H](C)[C@H](NC(=O)[C@H](Cc1ccc(O)cc1)NC(=O)[C@H](CCC(=O)O)NC(=O)[C@H](Cc1c[nH]cn1)NC(=O)CNC(=O)[C@H](CC(=O)O)NC(=O)[C@H](CO)NC(=O)[C@H](CO)NC(=O)[C@@H](NC(=O)c1ccc2c(c1)C(=O)OC21c2ccc(N(C)C)cc2Oc2cc(N(C)C)ccc21)C(C)C)C(=O)N[C@@H](Cc1ccc(OP(=O)(O)O)cc1)C(=O)N[C@H](C(=O)N[C@@H](CC(=O)O)C(=O)N1CCC[C@H]1C(=O)N[C@@H](CCSC)C(=O)N[C@@H](CCC(N)=O)C(=O)N[C@@H](CC(C)C)C(=O)N1CCC[C@H]1C(=O)N[C@@H](CC(=O)O)C(=O)O)C(C)C", "target": "ABL2 SH2 domain", "assay": "binding", "Kd [µM]": 0.077}
{"Compound": "COc1ccc2cc3[n+](cc2c1OC)CCc1cc2c(cc1-3)OCO2", "target": "Nuclear receptor ROR-gamma (RORC, Homo sapiens, UniProt P51449)", "assay": "SPR", "system": "ligand-binding domain", "Kd [µM]": 108}
{"Compound": "CSCC[C@H](NC(=O)CNC(=O)[C@H](Cc1ccccc1)NC(=O)[C@H](CC(=O)O)NC(=O)CNC(=O)c1ccc2c(c1)C(=O)OC21c2ccc(N(C)C)cc2Oc2cc(N(C)C)ccc21)C(=O)N[C@@H](CO)C(=O)N[C@@H](CCCNC(=N)N)C(=O)N[C@@H](CC(=O)O)C(=O)N[C@H](C(=O)N[C@@H](Cc1ccc(OP(=O)(O)O)cc1)C(=O)N[C@@H](CO)C(=O)N[C@H](C(=O)N[C@@H](CC(=O)O)C(=O)N[C@@H](Cc1ccc(O)cc1)C(=O)N[C@@H](Cc1ccc(O)cc1)C(=O)N[C@@H](CCCNC(=N)N)C(=O)N[C@H](C(=O)N[C@@H](CC(=O)O)C(=O)O)C(C)C)[C@@H](C)O)C(C)C", "target": "SYK SH2 domains", "assay": "binding", "Kd [µM]": 0.547}
{"Compound": "Nc1ncnc2c1ncn2[C@@H]1O[C@H](COP(=O)(O)OP(=O)(O)O)[C@@H](O)[C@H]1O", "target": "Cell cycle histidine kinase CckA, cytoplasmic region (Caulobacter vibrioides, UniProt Q9X688)", "assay": "isothermal titration calorimetry", "system": "Caulobacter crescentus", "setting": "25 °C, with: without c-di-GMP", "Kd [µM]": 530}
{"note": "For quick reference, copied from above:"}
{"Compound": "N=C(N)NCCC[C@H](N)C(=O)O", "target": "uncharacterized protein (Pelagibacter ubique, UniProt Q4FLC2)", "assay": "binding, competition isothermal titration calorimetry", "system": "Candidatus Pelagibacter ubique", "setting": "with: octopine competitor", "Kd [µM]": "5.5e-05 ± 3.6e-05"}
{"Compound": "CCCCCCCCCC(=O)CC(=O)N[C@H]1CCOC1=O", "target": "qscR, DNA-bound dimer (Pseudomonas aeruginosa, UniProt G3XD77)", "assay": "ligand binding, FRET displacement", "setting": "protein with DNA", "Kd [µM]": 0.000392}
